Experimental data of several laboratories.
A part holds a random share of what one study measured. Substitutions count along the parent as printed.

Block 1
Target: Centromere-binding protein 1, full length, N-terminal tag (CBF1, Saccharomyces cerevisiae, UniProt P17106, residues 1-351)
UniProt P17106, sequence (whole entry, looked up): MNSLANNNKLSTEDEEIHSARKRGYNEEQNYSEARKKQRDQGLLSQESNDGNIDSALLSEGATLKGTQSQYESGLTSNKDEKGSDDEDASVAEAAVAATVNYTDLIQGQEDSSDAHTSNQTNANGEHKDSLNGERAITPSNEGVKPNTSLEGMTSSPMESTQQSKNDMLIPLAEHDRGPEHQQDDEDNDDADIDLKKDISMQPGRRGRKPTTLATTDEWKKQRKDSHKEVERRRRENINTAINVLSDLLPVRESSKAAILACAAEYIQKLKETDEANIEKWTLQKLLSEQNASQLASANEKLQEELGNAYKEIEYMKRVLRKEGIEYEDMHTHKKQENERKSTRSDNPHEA
Technique: protein-binding microarray
Form: double-stranded DNA, one strand shown
Sample: in vitro
Concentration: 0.8 µM
Notes: whole 60-bp probe, no competitor
Reading: higher = stronger binding
Measurement: fluorescence intensity
Shared flanks, not repeated: … GTCTTGATTCGCTTGACGCTGCTG
GAATGAAAGGCCAATCATCTGATTTTCAATGGATAG: 706 a.u.
CTATTGTTCAAGTTTCACCTGTTCATCAAGTATTTC: 579 a.u.
GAATCTTTATGTCATCTTGTCACGTCTTATATGTAG: 728 a.u.
CTAAATAATCATCATCACCATTATCACTGTTACTTC: 562 a.u.
CCTAACTACTATAATCATGAGATATAGCTTCGTACA: 551 a.u.
GAAACGCTTTTACTTCACCCCATCTTATACTATTAG: 536 a.u.
CTATTTAAGTCATTAAACGTGTCTACTATTTAATTC: 590 a.u.
CTAAAGCTAATAAATATCATGTGGAAACTTTTCTTC: 882 a.u.

Block 2
Target: CCNF, cyclin fold, Cln2 fusion (human)
Technique: yeast growth competition, sequencing
Sample: yeast
Notes: strong parent motif
Relative to: not given
Reading: higher = stronger binding
Measurement: normalised enrichment score
Starting sequence: viral docking peptide; KGVKRKLFAEDSS
F8C: 0.948
E10V: 7.81
V3G: 3.29
K4P: 6.88
A9T: 7.46
L7A: 0.711
E10P: 7.55
R5T: 0.628
S12F: 8.01
F8S: 0.392
A9M: 8.47
S12P: 8.39
G2Q: 8.24
S12G: 7.56
K4M: 7.27
K6F: 2.32
D11Q: 7.64
L7H: 0.0437
F8E: 0.91
V3N: 0.756
R5Y: 0.246
A9Y: 8.24
S12C: 7.99
V3D: 0.334
K1A: 7.84

Block 3
Target: tungstate, free oxyanion
Technique: microfluidic competitive inhibition
Sample: in vitro, cell-free expressed
Concentration: not given
Notes: derived from inhibition constants, unchanged parent 2230 nM
Reading: lower = stronger binding
Measurement: oxyanion analog dissociation constant
Starting sequence: PafA, mature enzyme, eGFP fusion (Elizabethkingia meningoseptica, UniProt Q9KJX5); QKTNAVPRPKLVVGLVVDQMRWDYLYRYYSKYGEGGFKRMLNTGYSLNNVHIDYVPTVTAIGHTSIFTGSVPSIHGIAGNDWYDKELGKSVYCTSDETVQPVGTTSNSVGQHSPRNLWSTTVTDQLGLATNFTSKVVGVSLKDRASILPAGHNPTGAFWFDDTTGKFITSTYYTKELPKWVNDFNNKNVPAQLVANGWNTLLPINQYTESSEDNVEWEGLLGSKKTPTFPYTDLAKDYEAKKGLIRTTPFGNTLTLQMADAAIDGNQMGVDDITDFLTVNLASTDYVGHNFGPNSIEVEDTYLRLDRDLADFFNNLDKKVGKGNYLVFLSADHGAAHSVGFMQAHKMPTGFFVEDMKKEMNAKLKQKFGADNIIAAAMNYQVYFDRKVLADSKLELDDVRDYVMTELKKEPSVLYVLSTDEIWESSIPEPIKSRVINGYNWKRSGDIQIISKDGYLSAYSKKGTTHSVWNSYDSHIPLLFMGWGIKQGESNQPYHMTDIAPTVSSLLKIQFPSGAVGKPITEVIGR
G454V: 1.85 µM
A336V: 1.15 µM
D161G: 2.75 µM
V99G: 2.37 µM
T155G: 2.07 µM
I520G: 1.14 µM
P411V: 2.59 µM
L364V: 2.8 µM
H345V: 2.16 µM
D306G: 0.94 µM
V139G: 1.93 µM
V287G: 4.74 µM
E34V: 2.11 µM

Block 4
Target: UDP-N-acetylglucosamine--peptide N-acetylglucosaminyltransferase 110 kDa subunit (OGT, Homo sapiens, UniProt O15294)
Effect on: binding
Technique: phage display NGS
Form: peptide
Concentration: concentration not given
Notes: panning round 2
Relative to: input library
Measurement: enrichment fold change
Target sequence (O15294 1-1046): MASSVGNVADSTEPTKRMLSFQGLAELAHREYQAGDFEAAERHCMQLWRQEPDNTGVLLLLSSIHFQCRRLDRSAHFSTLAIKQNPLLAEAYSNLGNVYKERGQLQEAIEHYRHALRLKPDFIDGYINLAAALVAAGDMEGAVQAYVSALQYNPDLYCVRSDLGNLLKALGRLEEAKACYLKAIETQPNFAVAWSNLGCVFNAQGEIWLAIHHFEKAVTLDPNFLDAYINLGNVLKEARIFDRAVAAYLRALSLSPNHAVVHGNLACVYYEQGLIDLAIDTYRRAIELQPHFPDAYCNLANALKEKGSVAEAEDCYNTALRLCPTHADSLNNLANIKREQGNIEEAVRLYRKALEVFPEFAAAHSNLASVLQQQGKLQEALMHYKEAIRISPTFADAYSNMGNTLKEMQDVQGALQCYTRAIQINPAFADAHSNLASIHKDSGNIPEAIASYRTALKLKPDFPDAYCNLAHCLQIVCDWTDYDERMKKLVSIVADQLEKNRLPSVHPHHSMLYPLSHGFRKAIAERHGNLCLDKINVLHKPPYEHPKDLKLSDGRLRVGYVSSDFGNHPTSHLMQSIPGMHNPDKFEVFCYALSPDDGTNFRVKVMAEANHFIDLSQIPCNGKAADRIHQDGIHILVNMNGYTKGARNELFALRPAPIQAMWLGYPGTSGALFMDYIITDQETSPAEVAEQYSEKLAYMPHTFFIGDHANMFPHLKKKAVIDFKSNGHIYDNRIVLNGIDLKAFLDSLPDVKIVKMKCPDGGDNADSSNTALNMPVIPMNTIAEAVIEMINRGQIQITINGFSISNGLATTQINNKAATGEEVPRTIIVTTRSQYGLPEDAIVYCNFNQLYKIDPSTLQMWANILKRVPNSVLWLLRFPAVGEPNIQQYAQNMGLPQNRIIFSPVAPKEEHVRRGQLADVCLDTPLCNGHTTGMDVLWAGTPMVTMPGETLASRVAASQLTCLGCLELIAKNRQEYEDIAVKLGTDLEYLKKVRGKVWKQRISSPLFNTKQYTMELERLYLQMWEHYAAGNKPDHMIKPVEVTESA
HYERHQSHPWEEFMH: 6.22
QDTTFAPFYQIIAPP: 9.53
QPYQHNFYHWHAQPS: 5.33
EMEVYDYFPFYQIQV: 9.98
HWPYHHALDQPQRQD: 4.65
ASWSRYHVHDHIHDF: 5.19
RDHSWHGHHATLLGT: 5.62
DPRHHTHYPIHTMGY: 6.3
SPHMNNHHHAVMGEH: 7.96
QMHHHVIMGHHIGHT: 4.75
ESHQYSFKPMYQIVI: 23
SFVVPRYQIIYKPFQ: 5.56

Some of these lines once more (block 3):
V139G: 1.93 µM
G454V: 1.85 µM
V287G: 4.74 µM
I520G: 1.14 µM
P411V: 2.59 µM
H345V: 2.16 µM
